Published values from different studies.
Protocols differ between the studies behind these lines.
Target: Dual specificity mitogen-activated protein kinase kinase 7 (MAP2K7, Homo sapiens, UniProt O14733)

SMILES | test | test system | setting | scale | measurement | result
CNC(=O)C[C@H](Cc1ccc(C#N)cc1)NC(=O)c1cc(-c2ccc(CN[C@H](C)c3ccc(C)cc3)o2)ccc1Cl | enzyme activity, KinaseProfiler panel | – | 1 µM | – | remaining activity | 91%
COc1c(OCCCN2CCOCC2)ccc2c1N=C(NC(=O)c1cnc(N)nc1)N1CCN=C21 | kinase activity, inhibitor | – | 1 µM | baseline: untreated control | remaining activity | 77%
O=C=[N][Ru-4]123([n]4c5ccc(O)cc5c5c6c(c7cc(F)c[n+]1c7c54)C(=O)NC6=O)[S+]1CC[S+]2CC[S+]3CC1 (stereo not drawn) | enzyme activity | – | 100 nM, human enzyme, together with: 10 µM ATP | baseline: untreated | remaining activity | 63%
COc1cc(Nc2nc(C)cc(-c3cnn4nc(OC)ccc34)n2)cc(C(F)(F)F)c1 | inhibitor | – | 1 µM, MKK7 | baseline: control | remaining activity | 99%
C=CC(=O)N1CCc2ccc(-n3c(=O)ccc4cnc5ccc(-c6cnn(C)c6)cc5c43)cc21 | KINOMEscan | – | 1 µM | baseline: DMSO control | remaining binding | 98%
CC(C)=CC1OC(C)(C)C2C=C3C(=O)C(Cl)=CC(O)C3C3C(O)C4OC4C(=O)C132 (stereo not drawn) | cell-free assay, competition with immobilised ligand | – | 10 µM | – | remaining binding | 63%
COc1c(Cl)cccc1Nc1c(-c2ccncc2C#C[C@@]2(C)CCCN2C(=O)/C=C/CN(C)C)[nH]c2c1C(=O)NCC2 | binding, competition with immobilised ligand | – | 3 µM | – | remaining binding | 95%
C=CC(=O)N1CCCC(n2c(=O)c3ncccc3n(Cc3ccc(Oc4ccccc4)cc3)c2=O)C1 (stereo not drawn) | cell-free assay, competition with immobilised ligand | – | 1 µM | – | remaining binding | 74%
COc1cc(Nc2nccc(-c3cnn4nc(OC)ccc34)n2)cc(C(F)(F)F)c1 | binding, competition with immobilised ligand | – | 1 µM | – | remaining binding | 77%
CNC(=O)C1CCN(c2cc(C)c(F)cc2NC(=O)c2ccc(-c3cc(O)ccc3C)c(C)c2)CC1 | binding, competition with immobilised ligand | – | 1 µM | – | remaining binding | 93%
Nc1ncc2c(n1)-c1c([nH]c3ccc(C4=CCOCC4)cc13)CCC2 | binding, competition with immobilised ligand | – | 1 µM | – | remaining binding | 81%
COc1ccc(NC(=O)Nc2ccc3c(c2)C(=O)N(C(C)CO)CC(C)C(CN(C)Cc2ccc4c(c2)OCO4)O3)cc1 (stereo not drawn) | kinase activity, KinaseProfiler | – | 0.03 µM, species human | baseline: control | remaining activity | 121%
Cc1cnc2nc1Nc1cccc(c1)COC/C=C/COCc1cc(ccc1OCCN1CCOCC1)N2 | cell-free assay | – | 0.1 µM | – | remaining signal | 78%
CS(=O)(=O)Nc1cccc(-c2csc3cnc(Nc4ccc(N5CCN(CCCCCOc6cccc7c6C(=O)N(C6CCC(=O)NC6=O)C7=O)CC5)cc4)nc23)c1 (stereo not drawn) | probe labelling, inhibitor, KiNativ chemoproteomics | MOLT-4 | 1 µM | – | inhibition | -22.4%
Cc1ccc(-c2c(/C=C(\C#N)C(=O)NC(C)C)n(CCCO)c3ncnc(N)c23)cc1 | cell-free assay, competition with immobilised ligand | – | 1 µM | – | remaining binding | 70%
Cc1nc2c(F)cc(-c3nc(Nc4ccc(CNC(=O)CCCCCCC(=O)NO)cc4)ncc3F)cc2n1C(C)C | kinase activity | – | 1 µM | – | inhibition | 62%
CNC1C[S+]2CC[S+]3CC[S+](C1)[Ru-4]321([N]=C=S)[n]2c3ccc(OC)cc3c3c4c(c5cc(F)c[n+]1c5c32)C(=O)NC4=O (stereo not drawn) | KinomeScan | – | 0.1 µM | baseline: untreated | remaining binding | 100%
CCN1CCN(Cc2ccc(C(=O)Nc3ccc(C)c(NCc4cnc5[nH]ccc5c4OC)c3)cc2C(F)(F)F)CC1 | binding, competition with immobilised ligand | – | 1 µM | – | remaining binding | 20%

Excerpt of the above:
SMILES | test | test system | setting | scale | measurement | result
Cc1cnc2nc1Nc1cccc(c1)COC/C=C/COCc1cc(ccc1OCCN1CCOCC1)N2 | cell-free assay | – | 0.1 µM | – | remaining signal | 78%
